Experimental data pooled from the literature.
Lines come from different studies, so protocols differ. Values joined by “and” are separate records of one study, mostly repeats; a detail may differ. ± marks the error that the study gave.
Chain of UniProt P10635 (whole entry, looked up): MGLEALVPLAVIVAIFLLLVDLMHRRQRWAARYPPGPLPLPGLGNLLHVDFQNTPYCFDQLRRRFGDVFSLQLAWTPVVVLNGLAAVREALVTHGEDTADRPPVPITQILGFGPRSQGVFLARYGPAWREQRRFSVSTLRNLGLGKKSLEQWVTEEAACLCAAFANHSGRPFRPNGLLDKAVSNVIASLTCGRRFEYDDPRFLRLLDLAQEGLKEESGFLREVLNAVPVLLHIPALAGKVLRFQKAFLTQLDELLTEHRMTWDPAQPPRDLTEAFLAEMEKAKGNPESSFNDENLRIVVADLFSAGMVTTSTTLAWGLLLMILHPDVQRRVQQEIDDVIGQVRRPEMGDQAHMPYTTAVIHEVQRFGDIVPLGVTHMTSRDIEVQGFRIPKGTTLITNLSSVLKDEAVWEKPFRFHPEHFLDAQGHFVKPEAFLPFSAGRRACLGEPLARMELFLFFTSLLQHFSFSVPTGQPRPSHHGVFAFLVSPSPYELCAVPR

CCCCCCCCCCCCOC(=O)c1ccc(O)cc1 — mass balance (Caco-2 monolayers; 5 µM, 1 h, apical to basolateral): 81%
CN1CCCNC(=O)c2cccc(c2)C(=O)NCCCN(C)CCCNc2cccc3c2C(=O)c2cccc(c2C3=O)NCCC1 — viability (HeLa; cell growth or viability, CCK-8; 0.5 µM, 48 h): 40.8%
CC1(C)C(NC(=O)C(=NOC2(C(=O)O)CC2)c2csc(N)n2)C(=O)N1OS(=O)(=O)O (stereo not shown) — CC50 (HaCaT; cell growth or viability): > 100 µM
Cc1ccc(-n2nc(C(=O)Nc3cccc(C(N)=O)c3)cc2-c2ccc(CC(C)C)cc2)cc1 — CC50 (HeLa; cell growth or viability): > 50 µM
O=C(OCc1ccc(O[C@@H]2O[C@H](COC(=O)c3ccc(O)cc3)[C@@H](O)[C@H](O)[C@H]2O)cc1)c1ccc(O)cc1 — IC50 (HaCaT; cytotoxicity, MTT; 48 h, 10% FBS): > 200 µM
CN1CCN(c2ccc(NC(=O)c3cc(-c4ccccc4)n(-c4ccccc4)n3)cc2)CC1 — CC50 (HeLa; cell growth or viability): 38 µM
O=C(CCC(F)(F)F)Nc1ccc(C2CCCCC2)cc1 — hepatic clearance (hepatocyte stability; cryopreserved rat hepatocytes; 1 µM): 40 mL/min/kg
OB(O)c1sccc1/C=N/OCc1ccccc1 — IC50 (HEK-293T; cell growth or viability, MTT; 48 h): > 100 µM
NC(=O)c1cccc(NC(=O)c2oncc2-c2ccccc2)c1 — CC50 (HeLa; cell growth or viability): > 50 µM
O=C1NC2(CC2)COc2ncc(F)cc2[C@H]2COCCN2c2ccn3ncc1c3n2 — numerical aberrations (CHL; 150 µg/mL, 4 h, with rat liver S9): 0%
NC(=O)c1cccc(NC(=O)c2cc(-c3ccc(Br)cc3)n(-c3ccccc3)n2)c1 — CC50 (HeLa; cell growth or viability): > 50 µM
NC[C@H]1O[C@H](O[C@H]2[C@H](O)[C@@H](O[C@H]3O[C@H](Cn4cc(CNC(=S)Nc5ccc6c(c5)C(=O)OC65c6ccc(O)cc6Oc6cc(O)ccc65)nn4)[C@@H](O)[C@H](N)[C@H]3O)[C@H](N)C[C@@H]2N)[C@H](O)[C@@H](O)[C@@H]1O — cellular uptake (MCF7; flow cytometry; 5 µM, 24 h): 17 ± 4.4%
N=C(N)NCCC[C@@H]1NC(=O)[C@H](CCCNC(=N)N)NC(=O)[C@H](CCCNC(=N)N)NC(=O)[C@@H](CCCNC(=N)N)NC(=O)[C@H](Cc2ccc3ccccc3c2)NC(=O)[C@H](Cc2ccc3ccccc3c2)NC(=O)[C@H](Cc2ccc3ccccc3c2)NC1=O — viability (MRC5; cell growth or viability, MTS; 150 µg/mL, 24 h): 61 to 70%
Cc1cc(C(=O)N[C@H](C(=O)Nc2cccc(C(N)=O)c2)c2ccc(OCc3ccccc3)cc2)n(Cc2ccccc2)n1 — CC50 (HeLa; cell growth or viability): > 50 µM
CC(C)C[C@@H]1NC(=O)[C@H](CO)NC(=O)[C@H](CC(=O)O)NC(=O)[C@@H]2CCCN2C(=O)[C@H]2CCCN2C(=O)[C@H](C(C)C)NC(=O)[C@H](CC(=O)O)NC(=O)[C@H](CC(N)=O)NC(=O)[C@H](CCCNC(=N)N)NC(=O)[C@H]([C@@H](C)O)NC(=O)[C@H](C(C)C)NC(=O)CCNC(=O)CCNC(=O)[C@H](Cc2ccccc2)NC(=O)[C@H](C(C)C)NC(=O)[C@H](CC(C)C)NC1=O — concentration (HEK-293T; subcellular fractionation LC-MS; nuclear fraction; 20 µM, 24 h): not detected
O=C(Nc1cccc(N2CCOCC2)c1)c1cc(-c2ccccc2)n(-c2ccccc2)n1 — CC50 (HeLa; cell growth or viability): > 50 µM
COc1ccc2nccc(CC[C@H]3OC[C@H](NC(=O)c4ccc5c(c4)NC(=O)CO5)CO3)c2c1 — IC50 (HeLa; cytotoxicity; 24 h): > 128 µg/mL
O=C(O)/C=C\C(=O)NCCCOCCOCCOCCCNC(=O)/C=C\C(=O)O — cytotoxicity (HaCaT; MTT; up to 1000 ppm, 24 h): not toxic
Cc1cc(=O)c2c(O)c3c(O[C@@H]4O[C@H](CO)[C@@H](O)[C@H](O)[C@H]4O)cc(O)cc3cc2o1 — cell viability (HepaRG co-cultured with HK-2; MTT; 16.67 µM, 48 h; relative to: untreated control): 86.4 ± 7.39%
O=C(Nc1ccc(CNc2ncccn2)cc1)c1cc(-c2ccccc2)n(-c2ccccc2)n1 — CC50 (HeLa; cell growth or viability): > 50 µM
COc1cc(/C=C/C=C2\SC(=S)NC2=O)ccc1O — viability (HEK-293T; CellTiter-Glo; 1.25 µM, 24 h, unit not given; relative to: untreated): 0.976 and 1
CNC(=O)C1CCCN(C(=O)C2CC3CCC2N3C(=O)[C@@H]2C[C@@H](O)CN2C(=O)NCc2cccc(Cl)c2F)C1 (mixture of isomers) — remaining activity (Cytochrome P450 2D6 (CYP2D6, Homo sapiens, UniProt P10635); enzyme activity, inhibitor, time-dependent inhibition; 5.56 µM, preincubated without NADPH; relative to: negative control): 99.1%
CC(C)C[C@](O)(C(=O)OCc1ccc(O[C@@H]2O[C@H](CO)[C@@H](O)[C@H](O)[C@H]2O)cc1)[C@H](O)C(=O)OCc1ccc(O[C@@H]2O[C@H](CO)[C@@H](O)[C@H](O)[C@H]2O)cc1 — IC50 (HaCaT; cytotoxicity, MTT; 48 h, 10% FBS): > 200 µM
CC(=O)N[C@H](C(=O)N[C@H](C(=O)N[C@@H](CCCNC(=N)N)C(=O)N[C@@H](CC(N)=O)C(=O)N[C@@H](CC(=O)O)C(=O)N[C@H](C(=O)N1CCC[C@@H]1C(=O)N1CCC[C@H]1C(=O)N[C@@H](CC(=O)O)C(=O)N[C@@H](CO)C(=O)N[C@@H](CC(C)C)C(=O)N[C@@H](CC(C)C)C(=O)N[C@H](C(=O)N[C@@H](Cc1ccccc1)C(N)=O)C(C)C)C(C)C)[C@@H](C)O)C(C)C — peptide amount per protein (HEK-293T; subcellular fractionation LC-MS; cytoplasmic fraction; 20 µM, 24 h): not detected
N#CCNC(=O)c1ccc(C2CCCCC2)cc1 — hepatic clearance (hepatocyte stability; cryopreserved rat hepatocytes; 1 µM): 49 mL/min/kg

For quick reference, copied from above:
O=C(Nc1cccc(N2CCOCC2)c1)c1cc(-c2ccccc2)n(-c2ccccc2)n1 — CC50 (HeLa; cell growth or viability): > 50 µM
CN1CCN(c2ccc(NC(=O)c3cc(-c4ccccc4)n(-c4ccccc4)n3)cc2)CC1 — CC50 (HeLa; cell growth or viability): 38 µM
